Experimental data gathered from unrelated publications.
Every numbered part comes from another study and shows a few of its results, in no order.
UniProt Q5S007, sequence (whole entry, looked up): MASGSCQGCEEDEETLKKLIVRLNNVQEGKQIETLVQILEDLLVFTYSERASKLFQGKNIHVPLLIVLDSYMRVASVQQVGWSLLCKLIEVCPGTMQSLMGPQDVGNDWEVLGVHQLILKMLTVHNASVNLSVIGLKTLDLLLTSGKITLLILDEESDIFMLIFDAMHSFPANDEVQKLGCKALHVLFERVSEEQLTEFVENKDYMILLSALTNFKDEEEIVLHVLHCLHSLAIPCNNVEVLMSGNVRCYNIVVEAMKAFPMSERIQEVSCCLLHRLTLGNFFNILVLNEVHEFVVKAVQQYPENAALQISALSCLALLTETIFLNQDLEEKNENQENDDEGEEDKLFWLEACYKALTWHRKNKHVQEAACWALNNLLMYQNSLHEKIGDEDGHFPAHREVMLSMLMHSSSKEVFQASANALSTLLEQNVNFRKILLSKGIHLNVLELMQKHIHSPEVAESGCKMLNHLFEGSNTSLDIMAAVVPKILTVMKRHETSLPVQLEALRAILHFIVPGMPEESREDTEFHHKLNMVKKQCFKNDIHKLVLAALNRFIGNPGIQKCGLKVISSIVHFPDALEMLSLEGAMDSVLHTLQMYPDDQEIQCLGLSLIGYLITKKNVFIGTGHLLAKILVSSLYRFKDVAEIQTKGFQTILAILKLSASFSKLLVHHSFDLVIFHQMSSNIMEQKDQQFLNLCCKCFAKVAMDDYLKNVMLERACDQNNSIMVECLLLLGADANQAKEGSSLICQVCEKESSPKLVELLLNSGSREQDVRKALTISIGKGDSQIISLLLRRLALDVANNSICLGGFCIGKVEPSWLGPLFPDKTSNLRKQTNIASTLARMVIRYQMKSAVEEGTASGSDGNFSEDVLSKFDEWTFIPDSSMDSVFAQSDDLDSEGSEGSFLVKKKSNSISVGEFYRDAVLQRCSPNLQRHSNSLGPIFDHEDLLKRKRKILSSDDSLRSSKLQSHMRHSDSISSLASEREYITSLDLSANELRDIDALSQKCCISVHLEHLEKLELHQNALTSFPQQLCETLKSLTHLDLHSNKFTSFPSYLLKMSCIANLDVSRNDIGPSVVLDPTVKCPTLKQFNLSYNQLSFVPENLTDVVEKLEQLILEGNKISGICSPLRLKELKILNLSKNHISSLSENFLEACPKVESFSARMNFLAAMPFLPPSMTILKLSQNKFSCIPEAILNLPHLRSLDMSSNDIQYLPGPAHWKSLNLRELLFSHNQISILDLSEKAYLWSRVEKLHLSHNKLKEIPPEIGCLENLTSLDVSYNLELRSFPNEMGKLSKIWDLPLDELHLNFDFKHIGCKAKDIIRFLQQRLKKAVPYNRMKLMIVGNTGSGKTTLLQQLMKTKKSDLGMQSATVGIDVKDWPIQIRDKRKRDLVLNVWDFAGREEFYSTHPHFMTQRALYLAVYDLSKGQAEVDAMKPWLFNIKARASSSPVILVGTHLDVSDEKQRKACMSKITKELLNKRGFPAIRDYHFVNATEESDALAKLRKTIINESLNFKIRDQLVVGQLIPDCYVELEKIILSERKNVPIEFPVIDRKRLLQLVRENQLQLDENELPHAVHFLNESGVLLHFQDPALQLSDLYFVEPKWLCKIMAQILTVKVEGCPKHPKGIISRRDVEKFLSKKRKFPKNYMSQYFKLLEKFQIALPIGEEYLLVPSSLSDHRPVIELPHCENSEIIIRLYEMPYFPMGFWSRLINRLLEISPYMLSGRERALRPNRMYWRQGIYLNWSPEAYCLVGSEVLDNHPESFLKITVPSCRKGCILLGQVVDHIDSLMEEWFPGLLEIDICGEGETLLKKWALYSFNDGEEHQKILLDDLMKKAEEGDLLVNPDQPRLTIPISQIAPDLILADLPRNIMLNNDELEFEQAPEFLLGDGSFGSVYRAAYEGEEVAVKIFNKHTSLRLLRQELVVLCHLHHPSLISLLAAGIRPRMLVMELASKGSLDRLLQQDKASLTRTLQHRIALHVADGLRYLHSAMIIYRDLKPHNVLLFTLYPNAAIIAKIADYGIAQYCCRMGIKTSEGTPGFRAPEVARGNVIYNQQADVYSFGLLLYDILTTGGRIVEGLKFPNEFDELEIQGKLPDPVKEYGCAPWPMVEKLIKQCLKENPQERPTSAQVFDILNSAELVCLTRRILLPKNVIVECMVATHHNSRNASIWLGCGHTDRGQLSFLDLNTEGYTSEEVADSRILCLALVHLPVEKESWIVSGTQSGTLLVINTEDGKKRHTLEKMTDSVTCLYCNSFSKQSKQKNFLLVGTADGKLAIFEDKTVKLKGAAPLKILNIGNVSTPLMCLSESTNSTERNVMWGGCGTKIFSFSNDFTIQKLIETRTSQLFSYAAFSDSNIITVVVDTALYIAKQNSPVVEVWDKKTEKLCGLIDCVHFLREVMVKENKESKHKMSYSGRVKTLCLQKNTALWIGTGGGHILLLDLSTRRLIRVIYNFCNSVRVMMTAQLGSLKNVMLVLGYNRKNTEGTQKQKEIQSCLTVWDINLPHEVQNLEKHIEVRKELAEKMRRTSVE
UniProt P48729, sequence (whole entry, looked up): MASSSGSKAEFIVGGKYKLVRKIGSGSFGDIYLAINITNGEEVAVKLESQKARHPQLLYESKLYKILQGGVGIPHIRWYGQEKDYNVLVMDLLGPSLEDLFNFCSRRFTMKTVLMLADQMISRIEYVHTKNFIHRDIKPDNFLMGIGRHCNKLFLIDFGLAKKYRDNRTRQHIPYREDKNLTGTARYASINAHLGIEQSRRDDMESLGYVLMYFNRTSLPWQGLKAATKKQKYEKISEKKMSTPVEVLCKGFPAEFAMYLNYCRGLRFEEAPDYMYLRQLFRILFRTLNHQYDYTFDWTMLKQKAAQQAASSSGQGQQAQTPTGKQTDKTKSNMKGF
UniProt P37023, sequence (whole entry, looked up): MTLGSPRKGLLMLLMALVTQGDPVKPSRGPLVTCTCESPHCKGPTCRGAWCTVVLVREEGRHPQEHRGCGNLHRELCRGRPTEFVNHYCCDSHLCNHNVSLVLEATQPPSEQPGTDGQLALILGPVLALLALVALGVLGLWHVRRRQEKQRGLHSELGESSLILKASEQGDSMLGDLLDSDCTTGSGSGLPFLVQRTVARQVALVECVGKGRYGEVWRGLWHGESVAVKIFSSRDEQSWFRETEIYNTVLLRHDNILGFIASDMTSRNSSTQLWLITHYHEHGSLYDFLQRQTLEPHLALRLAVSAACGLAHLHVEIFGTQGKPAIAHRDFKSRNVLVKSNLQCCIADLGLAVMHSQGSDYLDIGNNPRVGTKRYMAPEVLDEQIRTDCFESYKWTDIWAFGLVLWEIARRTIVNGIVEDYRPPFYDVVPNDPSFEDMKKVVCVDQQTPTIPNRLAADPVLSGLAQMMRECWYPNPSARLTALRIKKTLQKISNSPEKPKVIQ
UniProt Q13976, sequence (whole entry, looked up): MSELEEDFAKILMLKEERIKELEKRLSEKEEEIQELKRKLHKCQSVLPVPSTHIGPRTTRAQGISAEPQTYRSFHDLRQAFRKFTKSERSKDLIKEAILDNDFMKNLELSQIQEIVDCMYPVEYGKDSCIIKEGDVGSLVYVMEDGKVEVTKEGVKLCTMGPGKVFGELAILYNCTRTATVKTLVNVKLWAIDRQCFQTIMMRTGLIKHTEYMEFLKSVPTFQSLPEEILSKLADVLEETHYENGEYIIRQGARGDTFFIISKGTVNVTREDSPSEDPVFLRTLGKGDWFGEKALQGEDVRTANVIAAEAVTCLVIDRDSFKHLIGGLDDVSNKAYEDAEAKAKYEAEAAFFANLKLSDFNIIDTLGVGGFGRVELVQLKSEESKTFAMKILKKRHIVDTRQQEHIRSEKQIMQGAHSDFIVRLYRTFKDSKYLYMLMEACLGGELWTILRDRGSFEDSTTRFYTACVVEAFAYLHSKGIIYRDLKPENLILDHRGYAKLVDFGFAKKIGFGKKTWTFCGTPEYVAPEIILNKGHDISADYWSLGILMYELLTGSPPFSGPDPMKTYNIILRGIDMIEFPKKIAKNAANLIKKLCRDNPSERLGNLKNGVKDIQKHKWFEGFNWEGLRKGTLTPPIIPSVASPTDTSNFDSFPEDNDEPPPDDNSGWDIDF

Set 1 — Compound: CC(C)(O)c1cncc(-c2nc3ccc(F)cc3n2C2CC2)c1; concentration: 1 µM
| target | test | remaining binding [%] |
| --- | --- | --- |
| NUAK1 (Homo sapiens, UniProt O60285) | cell-free assay, competition with immobilised ligand | 100 |
| COQ8A (Homo sapiens, UniProt Q8NI60) | cell-free assay, competition with immobilised ligand | 100 |
| ACVRL1 (Homo sapiens, UniProt P37023) | cell-free assay, competition with immobilised ligand | 100 |
| TESK1 (Homo sapiens, UniProt Q15569) | cell-free assay, competition with immobilised ligand | 100 |
| CSNK1G3 (Homo sapiens, UniProt Q9Y6M4) | cell-free assay, competition with immobilised ligand | 100 |
| CDC42BPG (Homo sapiens, UniProt Q6DT37) | competition binding | 100 |
| eIF-2-alpha kinase GCN2, C-terminal kinase domain (EIF2AK4, Homo sapiens, UniProt Q9P2K8, S808G) | cell-free assay, competition with immobilised ligand | 100 |
| SLK (Homo sapiens, UniProt Q9H2G2) | cell-free assay, competition with immobilised ligand | 100 |
| LRRK2 (Homo sapiens, UniProt Q5S007) | cell-free assay, competition with immobilised ligand | 100 |
| FGFR3 (Homo sapiens, UniProt P22607) | cell-free assay, competition with immobilised ligand | 100 |
| PIP4K2C (Homo sapiens, UniProt Q8TBX8) | cell-free assay, competition with immobilised ligand | 100 |
| TRPM6 (Homo sapiens, UniProt Q9BX84) | cell-free assay, competition with immobilised ligand | 100 |
| IKBKB (Homo sapiens, UniProt O14920) | cell-free assay, competition with immobilised ligand | 100 |
| CAMK1G (Homo sapiens, UniProt Q96NX5) | cell-free assay, competition with immobilised ligand | 100 |
| EIF2AK1 (Homo sapiens, UniProt Q9BQI3) | cell-free assay, competition with immobilised ligand | 100 |
| PRKCE (Homo sapiens, UniProt Q02156) | cell-free assay, competition with immobilised ligand | 100 |
| MAP3K20 (Homo sapiens, UniProt Q9NYL2) | cell-free assay, competition with immobilised ligand | 100 |
| Tyrosine-protein kinase ABL1, phosphorylated (ABL1, Homo sapiens, UniProt P00519, H396P) | cell-free assay, competition with immobilised ligand | 100 |
| DYRK1A (Homo sapiens, UniProt Q13627) | binding, competition with immobilised ligand | 48 |
| CDKL2 (Homo sapiens, UniProt Q92772) | cell-free assay, competition with immobilised ligand | 97 |
| CDK18 (Homo sapiens, UniProt Q07002) | cell-free assay, competition with immobilised ligand | 100 |
| BRSK2 (Homo sapiens, UniProt Q8IWQ3) | cell-free assay, competition with immobilised ligand | 100 |
| STK17A (Homo sapiens, UniProt Q9UEE5) | cell-free assay, competition with immobilised ligand | 94 |
| STK32B (Homo sapiens, UniProt Q9NY57) | cell-free assay, competition with immobilised ligand | 97 |
| EPHA4 (Homo sapiens, UniProt P54764) | cell-free assay, competition with immobilised ligand | 100 |

Set 2 — effect on: enzyme activity; mode: inhibitor; concentration: 10 µM
Target: Calcium/calmodulin-dependent protein kinase type II subunit alpha (CAMK2A, Homo sapiens, UniProt Q9UQM7)
UniProt Q9UQM7, sequence (whole entry, looked up): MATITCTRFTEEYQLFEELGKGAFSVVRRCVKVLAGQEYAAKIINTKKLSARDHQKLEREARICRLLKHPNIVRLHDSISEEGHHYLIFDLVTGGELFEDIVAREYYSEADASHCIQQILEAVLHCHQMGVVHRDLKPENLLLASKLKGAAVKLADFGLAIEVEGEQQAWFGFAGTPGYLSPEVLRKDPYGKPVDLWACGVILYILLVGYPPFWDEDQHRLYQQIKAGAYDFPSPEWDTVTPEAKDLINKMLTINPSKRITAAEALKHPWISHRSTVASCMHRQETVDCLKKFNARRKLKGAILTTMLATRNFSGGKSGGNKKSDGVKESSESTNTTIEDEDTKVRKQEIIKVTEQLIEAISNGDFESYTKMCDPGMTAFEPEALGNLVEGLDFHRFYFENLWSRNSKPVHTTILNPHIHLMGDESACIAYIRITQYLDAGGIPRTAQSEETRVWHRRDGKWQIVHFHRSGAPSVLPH
| SMILES | inhibition [%] |
| --- | --- |
| O=Cc1c[nH]c2cccc(O)c12 | -82 |
| CC(=O)c1ccc(O)cc1 | -9 |
| O[C@H]([C@H](O)[C@@H]1CO1)[C@H]1CO1 | -4 |
| C[C@H](CC[C@@H](O[C@@H]1O[C@H](CO)[C@@H](O)[C@H](O)[C@H]1O)C(C)(C)O)[C@H]1CC[C@@]2(C)[C@@H]3CC=C4[C@@H](CC[C@H](O)C4(C)C)[C@]3(C)[C@H](O)C[C@]12C | 51 |
| O=C(C1CCCCC1)N1CC(=O)N2CCc3ccccc3C2C1 (centres unmarked) | -3 |
| CC(NCCC(c1ccccc1)c1ccccc1)c1ccccc1 (centres unmarked) | 14 |
| COC(=O)[C@H]1[C@H]2C[C@H]3c4[nH]c5ccccc5c4CCN3C[C@H]2CC[C@@H]1O | 15 |
| CC(=O)NCCc1ccc(O)c(O)c1 | -25 |
| COc1ccc(C[C@@H]2c3cc(Oc4cc(C[C@@H]5c6cc(OC)c(OC)cc6CCN5C)ccc4O)c(OC)cc3CCN2C)cc1 | -25 |
| Oc1cc2cc[nH]c2cc1O | 13 |
| Clc1ccc(C(Cn2ccnc2)OCc2csc3c(Cl)cccc23)c(Cl)c1 (centres unmarked) | 0 |
| O=P(O)(O)OC(CO)CO | 23 |
| COc1cc(O)c2c(=O)cc(-c3ccc(OC)c(-c4c(O)cc(O)c5c(=O)cc(-c6ccc(O)cc6)oc45)c3)oc2c1 | -8 |
| COc1cc(O)c2c(=O)cc(-c3ccc(OC)c(OC)c3)oc2c1 | -27 |
| O=C(O[C@@H]1Cc2c(O)cc(O)cc2O[C@H]1c1ccc(O)c(O)c1)c1cc(O)c(O)c(O)c1 | -46 |
| CC1CCC2(OC1)OC1CC3C4CC=C5CC(OC6OC(CO)C(OC7OC(CO)C(O)C7O)C(OC7OC(C)C(O)C(O)C7O)C6O)CCC5(C)C4CCC3(C)C1C2C (centres unmarked) | -15 |
| C[C@H](CCC(=O)O)[C@H]1CC[C@H]2[C@@H]3CC=C4C[C@@H](O)CC[C@]4(C)[C@H]3CC[C@]12C | 19 |
| COC(=O)N[C@H](C(=O)N[C@@H](Cc1ccccc1)[C@@H](O)CN(Cc1ccc(-c2ccccn2)cc1)NC(=O)[C@@H](NC(=O)OC)C(C)(C)C)C(C)(C)C | 2 |

Set 3 — effect on: RNA clamping; method: fluorescence polarization; concentration: concentration not given; notes: mean of two replicates; together with: FAM-labelled poly r(AG)8 RNA
Target: Eukaryotic initiation factor 4A-III (Homo sapiens, UniProt P38919)
UniProt P38919, sequence (whole entry, looked up): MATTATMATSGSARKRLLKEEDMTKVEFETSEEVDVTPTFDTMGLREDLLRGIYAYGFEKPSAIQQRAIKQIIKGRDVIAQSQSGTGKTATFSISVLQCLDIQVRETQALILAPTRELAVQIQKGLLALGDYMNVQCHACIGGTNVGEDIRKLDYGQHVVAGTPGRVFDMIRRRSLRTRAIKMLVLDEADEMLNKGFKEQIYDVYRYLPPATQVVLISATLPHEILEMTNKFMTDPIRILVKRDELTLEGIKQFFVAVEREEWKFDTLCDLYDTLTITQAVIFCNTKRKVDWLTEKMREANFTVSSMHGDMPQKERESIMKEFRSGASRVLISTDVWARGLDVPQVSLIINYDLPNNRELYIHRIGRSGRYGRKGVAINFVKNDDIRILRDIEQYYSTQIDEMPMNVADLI
| Compound | fluorescence polarization change [mP] |
| --- | --- |
| CCCN(CCC)[C@@]12C(=O)[C@H](C(=O)OC)[C@@H](c3ccccc3)[C@]1(c1ccc(OC)cc1)Oc1cc(OC)cc(OC)c12 | 3.4 |
| COc1ccc([C@@]23Oc4cc(OC)cc(OC)c4[C@]2(O)[C@H](O)[C@H](C(=O)c2ccco2)[C@H]3c2ccccc2OC)cc1 | 23.6 |
| COc1ccc([C@@]23Oc4cc(OC)cc(OC)c4[C@]2(O)[C@@H](O)[C@H](C(=O)c2ccco2)[C@H]3c2ccccc2)cc1 | 18.5 |
| C#CCOc1cc(OC)c2c(c1)O[C@@]1(c3ccc(OC)cc3)[C@H](c3ccccc3)c3c(nc(-c4ccccc4)[nH]c3=O)[C@@]21O | 1.5 |
| COc1ccc([C@]23Oc4cc(OC)cc(OC)c4[C@@]2(O)c2nc(-c4cccc(OC)c4)[nH]c(=O)c2[C@@H]3c2ccccc2)cc1 | 12.9 |
| COC(=O)[C@H]1C(=O)[C@@]2(NC(C)C)c3c(OC)cc(OC)cc3O[C@@]2(c2ccc(OC)cc2)[C@@H]1c1ccccc1 | 0.6 |
| COc1ccc([C@@]23Oc4cc(OC)cc(OC)c4[C@]2(O)[C@H](O)[C@H](C(=O)c2cc4ccccc4n2C)[C@H]3c2ccccc2)cc1 | 7.3 |
| COc1ccc([C@@]23Oc4cc(OC)cc(OC)c4[C@]2(O)c2nc(-c4ccccc4)nc(OC)c2[C@H]3c2ccccc2)cc1 | 5.8 |
| COc1ccc([C@@]23Oc4cc(OC)cc(OC)c4[C@]2(O)[C@H](O)[C@H](C(=O)NCCCC(OC)OC)[C@H]3c2ccccc2)cc1 | 43.5 |
| C#CCOCCOCCNC(=O)CCCn1c(-c2ccccc2)nc2c(c1=O)[C@@H](c1ccccc1)[C@]1(c3ccc(OC)cc3)Oc3cc(OC)cc(OC)c3[C@]21O | 17 |
| COC(=O)C1=C(c2ccccc2)[C@]2(c3ccc(OC)cc3)Oc3cc(OC)cc(OC)c3[C@]2(O)C1=O | 10.6 |
| COC(=O)[C@H]1C(=O)[C@@]2(NCCc3scnc3C)c3c(OC)cc(OC)cc3O[C@@]2(c2ccc(OC)cc2)[C@@H]1c1ccccc1 | 3.6 |
| COc1ccc([C@@]23Oc4cc(OC)cc(OC)c4[C@]2(O)c2nc(-c4ccccc4)n(CC(CC(=O)O)OC)c(=O)c2[C@H]3c2ccccc2)cc1 (some centres unmarked) | 9.9 |
| COC(=O)[C@H]1[C@@H](O)[C@@]2(O)c3c(OC)cc(OC)cc3N(C)[C@@]2(c2ccc(Br)cc2)[C@@H]1c1ccccc1 | 8.4 |

Set 4 — effect on: enzyme activity; mode: inhibitor; concentration: 0.5 µM; relative to: control
SMILES: NC(=O)c1cccc(-c2cc(Nc3ccc(OC(F)(F)F)cc3)ncn2)c1
| target | remaining activity [%] |
| --- | --- |
| WNK2 (Homo sapiens, UniProt Q9Y3S1) | 115 |
| EPHA5 (Homo sapiens, UniProt P54756) | 103 |
| MAP4K2 (Homo sapiens, UniProt Q12851) | 132 |
| BTK (Homo sapiens, UniProt Q06187) | 99.1 |
| PRKCI (Homo sapiens, UniProt P41743) | 99.6 |
| CHEK1 (Homo sapiens, UniProt O14757) | 94.2 |
| Cyclin-dependent kinase 9, with cyclin T1 (CDK9, Homo sapiens, UniProt P50750) | 82.2 |
| MAP2K6 (Homo sapiens, UniProt P52564) | 101 |
| CSNK2A1 (Homo sapiens, UniProt P68400) | 94.6 |
| MKNK2 (Homo sapiens, UniProt Q9HBH9) | 95.4 |
| NEK4 (Homo sapiens, UniProt P51957) | 98 |
| LYN (Homo sapiens, UniProt P07948) | 99.8 |
| AKT3 (Homo sapiens, UniProt Q9Y243) | 93.5 |
| PRKG1 (Homo sapiens, UniProt Q13976) | 98.4 |
| CSNK1A1 (Homo sapiens, UniProt P48729) | 103 |
| MAPK12 (Homo sapiens, UniProt P53778) | 111 |
| KIT (Homo sapiens, UniProt P10721) | 100 |
| MAP3K10 (Homo sapiens, UniProt Q02779) | 95.4 |
| MAPK13 (Homo sapiens, UniProt O15264) | 98.1 |
| IRAK4 (Homo sapiens, UniProt Q9NWZ3) | 159 |
| PRKCD (Homo sapiens, UniProt Q05655) | 83.1 |
| LRRK2 (Homo sapiens, UniProt Q5S007) | 108 |
| PLK2 (Homo sapiens, UniProt Q9NYY3) | 98 |

Excerpt of the above (set 4):
| target | remaining activity [%] |
| --- | --- |
| PLK2 (Homo sapiens, UniProt Q9NYY3) | 98 |
| MAP2K6 (Homo sapiens, UniProt P52564) | 101 |
| CSNK1A1 (Homo sapiens, UniProt P48729) | 103 |
| CHEK1 (Homo sapiens, UniProt O14757) | 94.2 |
| MKNK2 (Homo sapiens, UniProt Q9HBH9) | 95.4 |
| MAPK13 (Homo sapiens, UniProt O15264) | 98.1 |
| IRAK4 (Homo sapiens, UniProt Q9NWZ3) | 159 |
| PRKCD (Homo sapiens, UniProt Q05655) | 83.1 |
| NEK4 (Homo sapiens, UniProt P51957) | 98 |
| PRKCI (Homo sapiens, UniProt P41743) | 99.6 |
